Experimental data collected from several papers.
Each line is one published result; not all experiments were run side by side. ± gives the spread as reported.

`COC1=C(OC)/C(=C/c2[nH]c(Cc3ccc(OC(F)(F)F)cc3)cc2Cc2ccc(OC(F)(F)F)cc2)N=C1c1ccc[nH]1.Cl` gave a solubility of 32.7 µM (potassium phosphate buffer; 1.5 h, pH 7.4, room temperature).
With `Cc1nc2ncnn2c(O)c1NS(=O)(=O)c1ccc(Br)cc1` the solubility was 2410 µg/mL (aqueous buffer; pH 7.4).
The solubility of `CCNc1ccnc(Nc2cccc(-c3cccnc3)c2)n1` is reported as 50.7 ± 0.7 µM (citrate phosphate-buffered saline; 18 h, pH 7.4, 1% DMSO).
`CN(Cc1ccc(C2(C(F)(F)F)CC2)cc1)Cc1cccc2ccccc12.Cl` gave a solubility of 3 µM (PBS; 2 h, pH 7.4, 25 °C).
With `O=S(=O)(c1ccc(-c2ccc3nccc(Nc4ccnnc4)c3c2)cc1)N1CCOCC1` the solubility was 661 µM (thermodynamic; aqueous medium).
With `O=C(NCCN1CCCC1)c1cc(-c2ccc(CN3CCOCC3)cc2)nc2ccc(F)cc12` the solubility was greater than 6490 µM (FeSSIF; 4 h, pH 5.0, 37 °C).
For `CCOC(=O)N1C[C@H](CC(C)C)N[C@H]([C@H]2CCOC2)C1`, the solubility was greater than 750 µM (shake-flask, LC-HRMS; aqueous buffer; 16 h, pH 6.8).
`C[C@@H](O)[C@H](NC(=O)c1ccc(-c2ccc(Br)cc2)cc1)C(=O)NCC1(C)NC(=O)NC1=O` (stereo partly shown) gave a solubility of 130 µg/mL (aqueous buffer; pH 7.4).
With `COc1cc(OC)c2c(=O)c(OC)c(-c3ccc(OC)c(OC)c3)oc2c1` the solubility was 13460 ± 61 ppm (HPLC; ethanol:butylene glycol 100:0).
The solubility of `C[C@@]1(C2CCOCC2)COC[C@@H](c2ccc(F)c(C#N)c2)N1` is reported as greater than 750 µM (shake-flask, LC-HRMS; aqueous buffer; 16 h, pH 6.8).
`COc1ccc(OCC(=O)Nc2cc(-c3nn4c(C)nnc4s3)ccc2C)cc1` gave a solubility of less than 2.92 µg/mL (aqueous buffer; pH 7.4).
With `CC(C)(C)C[C@@H]1COC[C@@H](c2ccc(C#N)cc2)N1` the solubility was greater than 750 µM (shake-flask, LC-HRMS; aqueous buffer; 16 h, pH 6.8).
For `COc1cccc(OC)c1CNC(=O)c1ccc2c(c1)C(=NNc1ccc(S(N)(=O)=O)cc1)C(=O)N2`, the solubility was 2.73 µg/mL (aqueous buffer; pH 7.4).
`O=C(Nc1cccc2[nH]ccc12)c1ccc(F)cc1` gave a solubility of no less than 300 µM (kinetic solubility; PBS with NaCl, SDS, ThT; pH 7.4).
`COC(=O)c1ccc([C@@H]2COC[C@H](c3ccc(Cl)cc3)N2)cc1` has a solubility of less than 4 µM (shake-flask, LC-HRMS; aqueous buffer; 16 h, pH 6.8).
For `O=C(CSc1nnc(-c2ccc([N+](=O)[O-])cc2)n1-c1ccccc1)N1CCOCC1`, the solubility was 3.57 µg/mL (aqueous buffer; pH 7.4).
For `O=c1[nH]ncc(NN=Cc2cn(-c3ccccc3)nc2-c2ccccc2)c1Cl`, the solubility was no more than 5 µM (cytotoxicity assay conditions).
For `Cn1c(Cc2ccccc2)nnc1Sc1ccc([N+](=O)[O-])cc1C(=O)N1CCOCC1`, the solubility was 61.6 µg/mL (aqueous buffer; pH 7.4).
For `COc1cccc([C@@H]2COC[C@@](C)(C3CCOCC3)N2)c1`, the solubility was greater than 750 µM (shake-flask, LC-HRMS; aqueous buffer; 16 h, pH 6.8).
The solubility of `c1ccc(CSc2ncnc3nc[nH]c23)cc1` is reported as 170 µM (UV absorbance; culture medium; stock diluted to 0.40 mM).
With `COc1cccc2c(NCc3ccccc3)nc(-n3c(N)nc4ccccc43)nc12` the solubility was 0.05 µg/mL (aqueous buffer; pH 7.4).
The solubility of `CCOC(=O)N1C[C@@H](c2cc(F)c(O)c(F)c2)N[C@@H](c2ccc(F)c3ccccc23)C1` is reported as less than 4 µM (shake-flask, LC-HRMS; aqueous buffer; 16 h, pH 6.8).
`CN1CCN(C(=O)c2ccccc2N(Cc2ccccc2)S(C)(=O)=O)CC1` gave a solubility of 1540 µg/mL (aqueous buffer; pH 7.4).
For `Cc1ccc([C@@H]2COC[C@H](c3ccc(C(C)(C)C)cc3)N2)cc1`, the solubility was less than 4 µM (shake-flask, LC-HRMS; aqueous buffer; 16 h, pH 6.8).
With `C#Cc1ccc(CC2=C(C)C(=O)c3ccccc3C2=O)cc1` the solubility was less than 2.5 µM (kinetic absorbance; 2% acetonitrile in water; 30 min).

Repeated from above:
For `COc1cccc([C@@H]2COC[C@@](C)(C3CCOCC3)N2)c1`, the solubility was greater than 750 µM (shake-flask, LC-HRMS; aqueous buffer; 16 h, pH 6.8).
The solubility of `c1ccc(CSc2ncnc3nc[nH]c23)cc1` is reported as 170 µM (UV absorbance; culture medium; stock diluted to 0.40 mM).
